Measurements of several laboratories.
Numbered parts are unrelated; each lists some results of a single study. Positions count from the first letter of the parent shown.

Sample 1
Target: Interferon regulatory factor 7, full length, phosphomimetic (IRF7, Homo sapiens, UniProt Q92985, residues 1-503, S471D/S472D/S475D/S476D/S477D/S483D/S484D/S487D)
Technique: protein-binding microarray
Molecule type: double-stranded DNA, one strand shown
Matrix: in vitro
Concentration: 2200 nM top
Setting: 60-bp whole probe
With: salmon DNA 0.4 mg/ml
Baseline: random background probes
Direction: higher = stronger binding
Measurement: fitted relative affinity
Shared flanks, not repeated: GCCTAGCAC … GTCTTGATTCGCTTGACGCTGCTG
Target sequence (chain): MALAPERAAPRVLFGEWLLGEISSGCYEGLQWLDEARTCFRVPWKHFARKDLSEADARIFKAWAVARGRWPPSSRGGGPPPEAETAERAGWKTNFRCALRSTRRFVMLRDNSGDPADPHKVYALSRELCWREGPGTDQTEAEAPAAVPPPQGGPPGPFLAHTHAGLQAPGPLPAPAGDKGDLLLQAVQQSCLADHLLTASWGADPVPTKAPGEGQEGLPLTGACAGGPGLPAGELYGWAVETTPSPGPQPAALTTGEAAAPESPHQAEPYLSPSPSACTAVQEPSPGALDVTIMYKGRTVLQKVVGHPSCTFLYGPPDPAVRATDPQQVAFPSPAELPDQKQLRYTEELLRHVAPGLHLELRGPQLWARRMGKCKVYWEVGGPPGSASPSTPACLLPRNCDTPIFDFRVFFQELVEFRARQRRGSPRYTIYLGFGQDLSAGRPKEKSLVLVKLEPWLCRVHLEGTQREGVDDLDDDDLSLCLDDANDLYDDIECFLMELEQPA
TCAGGTCTCCTTATCCTTTAGTGCTAG: 1.34 z-score
AACGAACTGGGGTATCGAGACGTGCTA: -0.00261 z-score
TCAGGTTTCTGGTTTATACTGTGCTAG: 3.39 z-score
TACGATATCAGTATCGAGACGTGCTAG: 0.431 z-score
TCAGTTTTCAGTCCTGGACTGTGCTAG: 2.74 z-score
GACGGACTGCTTTTACTGACGTGCTAG: 0.377 z-score
AACGGTCTCCTTATCCTGACGTGCTAG: 1.09 z-score
GACGATATCTGGACTGGAGACGTGCTA: 0.0116 z-score
TTAGGTTTCGAGTATCGGTTAGTGCTA: 3.68 z-score
TTTATTTATTTATTTATTTAGTGCTAG: 0.651 z-score
TCACATTTGATAAATCTTACTGTGCTA: 0.58 z-score
GACGATATCGGGACAGGAGACGTGCTA: -0.268 z-score
GACGGTCTCGATCTCGGGACGTGCTAG: -0.0333 z-score
TTAGAACTGGGGACGGGATTAGTGCTA: -0.311 z-score
GACGGTATCGGGACTGGTGACGTGCTA: -0.393 z-score
GACGATCTCAGTCTTGAGACGTGCTAG: 0.0817 z-score
CACGGTTTCCTTTCCCTGACGTGCTAG: 4.89 z-score
TTAGGTATCAGGTTTCGGTTAGTGCTA: 4.91 z-score
GCCGATTTCAGTTTCGAGACGTGCTAG: 6.33 z-score

Sample 2
Target: CCNB2, cyclin fold, Cln2 fusion (human)
Technique: yeast growth competition, sequencing
Matrix: yeast
Setting: weak parent motif
Baseline: not given
Direction: higher = stronger binding
Measurement: normalised enrichment score
Starting sequence: USP37 docking peptide (human); PSAKRSLGFLPQP; partner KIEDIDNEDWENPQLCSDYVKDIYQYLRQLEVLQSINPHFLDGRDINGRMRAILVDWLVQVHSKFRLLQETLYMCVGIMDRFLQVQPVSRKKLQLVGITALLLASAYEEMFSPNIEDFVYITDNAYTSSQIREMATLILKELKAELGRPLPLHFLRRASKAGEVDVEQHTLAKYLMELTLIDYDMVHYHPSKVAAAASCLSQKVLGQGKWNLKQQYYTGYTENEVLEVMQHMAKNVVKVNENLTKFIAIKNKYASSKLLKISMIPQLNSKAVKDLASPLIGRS
PSAKRSLGFAPQP [L10A]: 0.227
PSAKRSAGFLPQP [L7A]: -0.0188
PSAKRSLGFLAQP [P11A]: -0.0358
PAAKRSLGFLPQP [S2A]: 0.772
ASAKRSLGFLPQP [P1A]: 0.236
PSAKRSLGFLPAP [Q12A]: 0.521

Sample 3
Target: PABPC1L2, full length, GST fusion (mouse, UniProt A0ABA7IW68)
Technique: RNAcompete
Molecule type: RNA
Matrix: in vitro
Concentration: 20 nM
Setting: 7-mer, probes averaged, single round
Baseline: mean of 7-mers
Direction: higher = stronger binding
Measurement: 7-mer Z-score
Residues (chain): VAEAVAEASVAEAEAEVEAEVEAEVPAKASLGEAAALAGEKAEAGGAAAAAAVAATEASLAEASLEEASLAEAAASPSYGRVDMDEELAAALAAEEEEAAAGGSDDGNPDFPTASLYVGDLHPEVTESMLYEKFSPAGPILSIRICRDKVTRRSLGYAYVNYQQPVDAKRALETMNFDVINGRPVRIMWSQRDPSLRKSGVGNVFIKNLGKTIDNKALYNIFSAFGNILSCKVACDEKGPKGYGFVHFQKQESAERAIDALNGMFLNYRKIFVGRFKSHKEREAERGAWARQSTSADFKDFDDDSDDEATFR
ACGCACC: -0.0264
UACAUCG: -0.0736
GAUGCCG: -0.222
UCAUCGG: -0.191
AAACAGC: 2.8
CCCAGCG: -0.197
AUGGUCU: -0.231
ACGUGAG: -0.228
AAUUCUU: 0.00617
GCGGGUC: 0.347
CUGGCCG: -0.166
GAGGUAA: 0.287
UUUACCC: -0.191
GUACUCG: -0.199
GAAUCGG: -0.0699
AGAUAGG: -0.0935
AUAUUUG: -0.302
AACUUUC: -0.106
GUGUUGC: -0.244

Sample 4
Target: Histone acetyltransferase KAT6A, winged helix 1, GST fusion (KAT6A, Homo sapiens, UniProt Q92794, residues 1-85)
Technique: protein binding microarray
Molecule type: double-stranded DNA, one strand shown
Matrix: in vitro
Concentration: not given
Setting: 8-mer, flanks averaged, mean of 2 arrays, mostly near background
Baseline: not given
Direction: higher = stronger binding
Measurement: E-score
Target sequence (chain): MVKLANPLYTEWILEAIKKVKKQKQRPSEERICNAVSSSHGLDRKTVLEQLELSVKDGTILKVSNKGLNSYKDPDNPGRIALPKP
CGTATTAC: 0.15
GAAGGGTA: -0.00466
ATCAGCGG: 0.288
CGGCCCTC: 0.311
AGACATTC: -0.0714
AAGCGCAG: 0.244
AGTATAAT: -0.0711
CCGTGATC: 0.258
AGCGAGCT: -0.0371
ATGTGAAT: -0.133
GATTTACA: 0.000945
CCCGGTGA: 0.144
CGCACTCA: 0.154
CATCTCCG: -0.0654
TGGTTACA: -0.0555
CCAAGCAC: -0.178
ATAAGAAG: -0.204
GGACCGCC: 0.318
AATCAAGT: -0.128
ATGTACCC: 0.0719
ATGGATTA: -0.19
CTCCAGGC: 0.00689
CTGAGCTA: 0.00214
CGAGGTTA: 0.0702

Sample 5
Target: RNA binding protein fox-1 homolog 2, RRM domain, GST-SBP tag (RBFOX2, Homo sapiens, UniProt O43251-10, residues 100-194)
Technique: RNA Bind-n-Seq
Molecule type: RNA
Matrix: in vitro
Concentration: 365 nM
Setting: natural RNA segment, single round, ends assumed
Baseline: no-protein control
Direction: higher = stronger binding
Measurement: RBNS enrichment (R)
Shared flanks, not repeated: GGGAGUUCUACAGUCCGACGAUC … UGGAAUUCUCGGGUGCCAA
Construct (chain): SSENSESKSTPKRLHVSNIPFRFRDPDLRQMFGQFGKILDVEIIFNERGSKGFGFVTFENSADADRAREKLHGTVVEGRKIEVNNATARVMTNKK
AAGCCCUUCUGAUGAUUCCAAUGUGUUGGAAAGUUUACCUUGUCUCAGAUGUAACUGGUAAAGGCUGAUUUCUAAAUUUUCUGUAAUUGCAGCAACCUUUCUCUCCUGUC: 0.348
UGAUAAAUCAAUAGCUAAAGUUUUCUCCUAACUUUAAGUCUGGUAAAUAUCUCUCAGGAAUGGAAGUGUCAAUGAGUAGUCAGUAUUACUAUACUCUUGUUUGUAAGAAU: 0.687
UCUUCCGGGGCUUGUUGCCAUUCCCCUAGAUGCUGGAGAAAGCCUGGGCCAGCCUGUAGCCUGACCGCACUAGUGGUCGCCCAGUCCCCAUCUCUGUGGCCCUCUGAAGC: 0.235
AGGACCUUUCCACCACAGCCAGCACCUGGCAUCGCACCAUUCUGACUCGGUUUCUCCAAACUGAAGCAGCCUCUCCCCAGGUCCAGCUCUGGAGGGGAGGGGGAUCCGAC: 0.416
UGCUGCUGCUGAUCCGGGGACCGCUGUCUUCCCUCCCAUACGCCUUUCAUCCCUCCUUCUAGGGCCUAUGGCAGUUCUCCCAGGAUGUGUGGCGAGAGCCUGGGCCAGCC: 0.54
AAACAUUUCUAACCUUUGGUUUGCUGACAUGUGUAGUAACUCUCUAAAAUGUCUGGAGAUGGGCAAGGAAGAUGCAGGGCCUCUGAAUAGUAGAUGUGAGAACUUGGGUU: 0.878
ACUGUAAUGUGGGACUAACAUGGAUGUGAUGUCUUAUUUAAAAAGAAAUCAGGAUAAUUAGUAACAAUUCUAGUUCUUUCUCUCCCCGCUCUACUUCUUUUUUUUCCCUC: 0.455
ACCUUUGUGGGGGGCUUUUGAGGACCCAGCUGCGUCAGGAGUUUUGCUUCAAGAUGUCAGAAAGUCAAGUUCAGCUAAGAGACACCCAGGUCCCCAGCUUGCCCUGAGCA: 0.324

Some of these lines once more (sample 1):
TCACATTTGATAAATCTTACTGTGCTA: 0.58 z-score
GACGATATCGGGACAGGAGACGTGCTA: -0.268 z-score
GACGGTCTCGATCTCGGGACGTGCTAG: -0.0333 z-score
TTAGAACTGGGGACGGGATTAGTGCTA: -0.311 z-score
GACGGTATCGGGACTGGTGACGTGCTA: -0.393 z-score
GACGATCTCAGTCTTGAGACGTGCTAG: 0.0817 z-score
CACGGTTTCCTTTCCCTGACGTGCTAG: 4.89 z-score
TTAGGTATCAGGTTTCGGTTAGTGCTA: 4.91 z-score
